Experimental data from different studies.
Protocols differ between the studies behind these lines. ± marks the error that the study gave.
Organism: Klebsiella pneumoniae

CCCCCCCCCCCCCCCc1cc(O)cc(O)c1  MIC (microbial growth, broth dilution; ATCC10031): > 64 µg/mL
CC[P+](CC)(CC)[Au-][S][C@@H]1O[C@H](COC(C)=O)[C@@H](O[C@H]2O[C@H](COC(C)=O)[C@@H](OC(C)=O)[C@H](OC(C)=O)[C@H]2OC(C)=O)[C@H](OC(C)=O)[C@H]1OC(C)=O  MIC (ATCC 700603): > 265 µM
CC(C)C[C@H](NC(=O)[C@H](CC(N)=O)NC(=O)[C@H](CCCNC(=N)N)NC(=O)[C@@H](CC(C)C)NC(=O)[C@H](Cc1ccc(C(F)(F)F)cc1)NC(=O)[C@H](CC(=O)O)NC(=O)[C@H](CCCCN)NC(=O)[C@@H](CC(C)C)NC(=O)[C@H](CCCNC(=N)N)NC(=O)[C@H](CCC(N)=O)NC(=O)[C@@H](NC(=O)[C@@H](CC(C)C)NC(=O)[C@H](CCCNC(=N)N)NC(=O)[C@H](CCCCN)NC(=O)[C@H](Cc1ccc2ccccc2c1)NC(=O)CN)C(C)C)C(=O)N[C@H](C(N)=O)C(C)C  MIC (broth microdilution; ATCC 13883): 12.5 µM
CC[P+](CC)(CC)[Au-][S+](C[C@H]1O[C@H](O[C@H]2O[C@H](COC(C)=O)[C@@H](OC(C)=O)[C@H](OC(C)=O)[C@H]2OC(C)=O)[C@H](OC(C)=O)[C@@H](OC(C)=O)[C@@H]1OC(C)=O)[Au-][P+](CC)(CC)CC.[Cl-]  MIC (ATCC 700603): > 194 µM
Oc1cc(C(F)(F)F)ccc1-c1nc2c(C(F)(F)F)cc(C(F)(F)F)cc2[nH]1  MIC (B9): 25 µM
CO[C@@H](C(N)=O)[C@H](NC(=O)c1ccc(NC(=O)c2ccc([N+](=O)[O-])cc2)cc1)C(=O)Nc1ccc(C(=O)Nc2ccc(C(=O)Nc3ccc(C(=O)O)cc3)c(O)c2OC(C)C)cc1  MIC (microbial growth; DSM30104): > 64 µg/mL
CC(C)CCCCCCCCCCCCc1cc(O)cc(O)c1  MIC (microbial growth, broth dilution; ATCC10031): > 64 µg/mL
CC(=O)N1CCc2cc(S(=O)(=O)N3CCN(c4cncc(C(F)(F)F)c4)CC3)ccc21  MIC (broth microdilution; 10031; 22 h): > 64 µg/mL
Cc1[nH]c(=O)c(CNC(=O)c2ccc(C(F)(F)F)nc2)c2c1CCCC2  MIC (microbial growth, agar dilution; clinical isolate): > 128 µg/mL
C[C@H]1COc2c(N3CCN(C)CC3)c(F)cc3c(=O)c(C(=O)N[C@@H](CCCNC(=N)N)C(=O)N[C@@H](Cc4ccc(-c5ccccc5)cc4)C(=O)N[C@@H](CCCNC(=N)N)C(=O)N[C@@H](Cc4ccc(-c5ccccc5)cc4)C(=O)N[C@@H](CCCNC(=N)N)C(N)=O)cn1c23  MIC (broth microdilution; ATCC 2814): 20 µM
c1ccc(CN2CCOCCOCCN(CCCCCCCCCCN3CCOCCOCCN(CCCCCCCCCCN4CCOCCOCCN(Cc5ccccc5)CCOCCOCC4)CCOCCOCC3)CCOCCOCC2)cc1  MIC (ESBL, fluoroquinolone-resistant): 26 µM
CC(C)C(O)C(NC(=O)[C@H](Cc1ccc(O)cc1)NC(=O)C(Cc1ccc(O)cc1)[N+](C)(C)C)C(=O)N[C@@H](C)C(=O)O (stereo partly drawn)  MIC (ATCC 27736): > 100 µM
CCOC(=O)c1ccc2c(c1)n(CC)[c]([Au-][Cl])[n+]2CC  MIC (broth dilution; DSM 11678; 20 h, 37 °C): 66.8 µM
NC[C@@H]1O[C@H](O[C@H]2[C@@H](O)[C@H](O[C@@H]3[C@@H](O)[C@H](N)C[C@H](N)[C@H]3O[C@H]3O[C@H](CO)[C@@H](CCO)[C@H](O)[C@H]3N)O[C@@H]2CO)[C@H](N)[C@@H](O)[C@@H]1O  MIC (AG215): 2 to 4 µg/mL
CC1=NN(CNc2ccc(C(=O)O)c(O)c2)C(=O)/C1=N/Nn1c(-c2ccccc2)nc2ccccc2c1=O  MIC (microbial growth, broth dilution; 24 h): 12.2 µM
CCn1[c]([Au-][Cl])[n+](CC)c2ccc(C(=O)OC)cc21  MIC (broth dilution; DSM 11678; 20 h, 37 °C): 91.8 ± 39.7 µM
CC[S+]([O-])C1C(CO)OC(OC2C(N)CC(N)C(O)C2OC2OC(CO)C(OC3OC(CN)C(O)C(O)C3N)C2O)C(N)C1O (mixture of isomers)  MIC (AG215): 64 µg/mL
CC(C)CCCCC(=O)N[C@@H](CCN)C(=O)N[C@H](C(=O)N[C@@H](CCN)C(=O)N[C@H]1CCNC(=O)[C@H]([C@@H](C)O)NC(=O)[C@H](CCN)NC(=O)[C@H](CCN)NC(=O)[C@H](CC(C)C)NC(=O)[C@@H](Cc2ccccc2)NC(=O)[C@H](CCN)NC1=O)[C@@H](C)O  MIC (broth microdilution; NCTC 418; 37 °C): 0.5 µg/mL
CCS(=O)(=O)[C@H]1[C@H](O)[C@@H](N)[C@@H](O[C@H]2[C@H](O[C@@H]3O[C@H](CO)[C@@H](O[C@H]4O[C@@H](CN)[C@@H](O)[C@H](O)[C@H]4N)[C@H]3O)[C@@H](O)[C@H](N)C[C@@H]2N)O[C@@H]1CO  MIC (AG215): > 128 µg/mL
CC(C)C[C@H](NC(=O)[C@H](CC(N)=O)NC(=O)[C@H](CCCNC(=N)N)NC(=O)[C@@H](CC(C)C)NC(=O)[C@H](Cc1ccccc1)NC(=O)[C@H](CC(=O)O)NC(=O)[C@H](CCCCN)NC(=O)[C@@H](CC(C)C)NC(=O)[C@H](CCCNC(=N)N)NC(=O)[C@H](CCC(N)=O)NC(=O)[C@@H](NC(=O)[C@@H](CC(C)C)NC(=O)[C@H](CCCNC(=N)N)NC(=O)[C@H](CCCCN)NC(=O)[C@H](Cc1ccc(-c2ccccc2)cc1)NC(=O)CN)C(C)C)C(=O)N[C@H](C(N)=O)C(C)C  MIC (broth microdilution; ATCC 13883): 25 µM
N#Cc1ccc2cccc(O)c2n1  MIC (microbial growth, agar dilution; ATCC700603): > 1500 µM
